Published values collected from several papers.
Lines come from different studies, so protocols differ.

For `C[C@@H]1OC(=O)NN=C1c1ccc(-c2ccc(F)cc2)c(C(F)(F)F)c1`, “patients with adverse event” read 0% (phase I trial, measured: Ascites all grades; human patients; 5 mg once daily).
Under “patients with adverse event”, `CN(C)C(=O)c1cc2cnc(Nc3ccc(N4CCNCC4)cn3)nc2n1C1CCCC1` is recorded as 1.2% (measured: Leukopenia, AESI; human, HR+/HER2− advanced breast cancer; oral, dose not given, grade 4, CTCAE v4.03).
Under “patients with TEAE”, `Cc1cn([C@H]2O[C@@H](CO[P@@](=O)(N[C@@H](C)C(=O)OC(C)C)Oc3ccccc3)[C@H](O)[C@H]2F)c(=O)[nH]c1=O` is recorded as 20% (measured: Fatigue; human; 25 mg).
`N[C@@H]1c2ccccc2OC12CCN(c1cnc3c(N4CCCc5ncccc54)n[nH]c3n1)CC2`: “patients with serious adverse event” 3.6% (measured: thrombocytopenia; human advanced or metastatic solid tumours; oral, dose not given, phase Ia).
Under “patients with serious TEAE”, `COc1ccc(-c2c(-c3ccc(C#N)c(F)c3)nc(N3CCC(N)CC3)n(C)c2=O)cc1F` is recorded as 0% (measured: acute kidney injury; human patients; oral, 60 mg, dose expansion).
Under “patients with decreased appetite TEAE”, `C[C@]1(O)C[C@@](N)(c2ccc(-c3nc4n(c3-c3ccccc3)COc3ccncc3-4)cc2)C1` is recorded as 22.2% (human, advanced or metastatic solid tumours; dose not given, once-daily dose escalation total).
`C=CC(=O)Nc1cc(Nc2nccc(Nc3cc(Cl)c(F)cc3C(C)(C)O)n2)c(OC)cc1N1CC[C@@H](N(C)C)C1`: “patients with hypokalaemia” 35% (human patients; oral, 400 mg, treatment-emergent adverse events).
Under “patients with rash”, `O=C1Nc2cc3[nH]nc(-c4ccncc4)c3cc2CN1Cc1ccccc1` is recorded as 0% (CTCAE v4.03; human, relapsed or refractory advanced solid tumours; intravenous, 4.8 mg/kg, pooled schedules).
For `COc1ncnn2ccc(-c3cnc4nc(C)n(Cc5nnc([C@@H](C)F)o5)c4c3)c12`, “patients with hypotension” read 0% (human; oral, dose not given, grade 4).

A few entries again:
Under “patients with rash”, `O=C1Nc2cc3[nH]nc(-c4ccncc4)c3cc2CN1Cc1ccccc1` is recorded as 0% (CTCAE v4.03; human, relapsed or refractory advanced solid tumours; intravenous, 4.8 mg/kg, pooled schedules).
